Results from different studies.
Compare with care: the assays were run in different laboratories.

`N[C@@H]1c2ccccc2OC12CCN(c1cnc3c(N4CCCc5ncccc54)n[nH]c3n1)CC2`: “patients with serious adverse event” 3.6% (refers to: pneumonia; human advanced or metastatic solid tumours; oral, dose not given, phase Ia).
For `Cc1ccc(Cl)cc1N1CCN(CCCNc2ncnc3onc(-c4ccc(F)cc4)c23)CC1`, the cytotoxicity efficacy was 0% (Vero-E6; CellTiter-Glo ATP; concentration not given, 72 h, first round 5-point; reference: DMSO 0%, hyamine -100%, more negative, more toxic).
Under “patients with infusion site pain”, `C=CCNc1c(O)cc2c(O)c1C[C@@H](C)C[C@H](OC)[C@H](O)[C@@H](C)/C=C(\C)[C@H](OC(N)=O)[C@@H](OC)/C=C\C=C(/C)C(=O)N2` is recorded as 26% (human unresectable metastatic GIST or sarcoma; intravenous, dose not given, treatment-emergent, all doses).
`CNC(=O)c1cc(Oc2ccc(NC(=O)Nc3cc(C(C)(C)C)nn3-c3ccc4ncccc4c3)c(F)c2)ccn1` — result for “patients with related serious Nausea AE”: 2% (human, trial; oral, dose not given, all doses).
Under “patients with QTc prolongation”, `O=C1Nc2cc3[nH]nc(-c4ccncc4)c3cc2CN1Cc1ccccc1` is recorded as 0% (CTCAE v4.03; human, relapsed or refractory advanced solid tumours; intravenous, 3.6 mg/kg, pooled schedules).
`Oc1ccc(/C=C/c2cc(O)cc(O)c2)cc1` has a maximum inhibition of 20.8% (human coronavirus OC43; virus-induced cell killing; MRC-5; screen).
`COc1ncnn2ccc(-c3cnc4nc(C)n(Cc5nnc([C@@H](C)F)o5)c4c3)c12` — result for “patients with nail discoloration”: 0% (human; oral, dose not given, grade 2).
`C=CC(=O)Nc1cc(Nc2nccc(Nc3cc(Cl)c(F)cc3C(C)(C)O)n2)c(OC)cc1N1CC[C@@H](N(C)C)C1` — result for “patients with AST increased”: 16.7% (human patients; oral, 50 mg, treatment-emergent adverse events).
`Cc1cn([C@H]2O[C@@H](CO[P@@](=O)(N[C@@H](C)C(=O)OC(C)C)Oc3ccccc3)[C@H](O)[C@H]2F)c(=O)[nH]c1=O` — result for “patients with ALT/AST elevation”: 0% (refers to: grade 3; human; 25 mg).
For `C[C@]1(O)C[C@@](N)(c2ccc(-c3nc4n(c3-c3ccccc3)COc3ccncc3-4)cc2)C1`, “patients with decreased appetite” read 0% (human, advanced or metastatic solid tumours; 16 mg once daily, phase I dose escalation).
`CNCCN(C)c1nc(NC(C)c2ccccc2)c2ccccc2n1` (stereo not shown) gave a cytotoxicity efficacy of 0% (Vero-E6; CellTiter-Glo ATP; concentration not given, 72 h, second round 5-point; reference: DMSO 0%, hyamine -100%, more negative, more toxic).
For `C[C@@H]1OC(=O)NN=C1c1ccc(-c2ccc(F)cc2)c(C(F)(F)F)c1`, “patients with adverse event” read 20% (phase I trial, refers to: Anaemia worst grade 3; human patients; dose not given, all dose groups).
`CN(C)C(=O)c1cc2cnc(Nc3ccc(N4CCNCC4)cn3)nc2n1C1CCCC1` — result for “patients with adverse event”: 9.6% (refers to: Thrombocytopenia, AESI; human, HR+/HER2− advanced breast cancer; oral, dose not given, all grades, CTCAE v4.03).
`Cn1nc(NS(C)(=O)=O)c2c(Cl)ccc(-n3c([C@H](Cc4cc(F)cc(F)c4)NC(=O)Cn4nc(C(F)F)c5c4C(F)(F)[C@@H]4C[C@H]54)nc4nc(OCCC(F)(F)F)ccc4c3=O)c21`: “patients with laboratory abnormality” 38% (refers to: total cholesterol grade 1 increase; human; 300 mg once daily, powder in bottle).
`Cn1cncc1-c1c(F)cncc1NC(=O)c1c(N)nn2cc(F)cnc12`: “patients grade ≥3 Anemia” 36% (human patients; oral, dose not given, all doses).
`COc1ccc(-c2c(-c3ccc(C#N)c(F)c3)nc(N3CCC(N)CC3)n(C)c2=O)cc1F` — result for “patients with serious TEAE”: 5% (refers to: biliary tract infection; human patients; oral, 60 mg, dose expansion).

Excerpt of the above:
`Oc1ccc(/C=C/c2cc(O)cc(O)c2)cc1` has a maximum inhibition of 20.8% (human coronavirus OC43; virus-induced cell killing; MRC-5; screen).
`N[C@@H]1c2ccccc2OC12CCN(c1cnc3c(N4CCCc5ncccc54)n[nH]c3n1)CC2`: “patients with serious adverse event” 3.6% (refers to: pneumonia; human advanced or metastatic solid tumours; oral, dose not given, phase Ia).
